Measurements gathered from unrelated publications.
Lines come from different studies, so protocols differ. ± gives the spread as reported.
ESR1: Estrogen receptor (ESR1, Homo sapiens, UniProt P03372)
Chain of UniProt P03372 (whole entry, looked up): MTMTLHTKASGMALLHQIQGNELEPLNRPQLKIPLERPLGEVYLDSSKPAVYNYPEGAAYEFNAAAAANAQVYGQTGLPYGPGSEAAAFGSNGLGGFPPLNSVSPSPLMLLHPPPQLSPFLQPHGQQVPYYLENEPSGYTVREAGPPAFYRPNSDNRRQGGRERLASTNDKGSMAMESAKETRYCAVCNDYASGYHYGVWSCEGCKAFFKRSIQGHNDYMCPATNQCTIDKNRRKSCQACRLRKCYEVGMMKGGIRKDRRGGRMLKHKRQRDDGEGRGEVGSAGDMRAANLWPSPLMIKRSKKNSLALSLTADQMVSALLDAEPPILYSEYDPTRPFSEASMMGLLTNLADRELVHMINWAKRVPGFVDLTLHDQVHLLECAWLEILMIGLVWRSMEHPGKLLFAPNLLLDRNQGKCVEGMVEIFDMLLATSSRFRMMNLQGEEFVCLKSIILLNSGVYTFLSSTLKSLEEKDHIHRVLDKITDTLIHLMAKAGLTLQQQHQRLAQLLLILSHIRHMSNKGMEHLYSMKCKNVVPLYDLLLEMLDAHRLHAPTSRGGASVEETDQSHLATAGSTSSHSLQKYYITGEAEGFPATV

CCCN1CC(COc2ccc(C3c4ccc(O)cc4CC4(CC4)N3C(=O)c3ccccc3)cc2)C1 (centres unmarked) — IC50 (Estrogen receptor, with SRC3 (ESR1, Homo sapiens, UniProt P03372); SRC3 coactivator recruitment; 48 h, with: estradiol 1 nM): 623 ± 8880 nM
O=C1c2ccc(O)cc2-c2c(-c3ccc(O)cc3)oc3cc(O)cc1c23 — Kd (ESR1; binding, fluorescence polarization): 3100 nM
CC[C@H]([C@H](CC)c1ccc(O)cc1)[C@@H](C)c1ccc(O)cc1 — EC50 (ESR1; reporter gene, agonist, 3xERE luciferase reporter; HEK293T; 24 h): 0.0038 nM
Nc1cc(-c2cc(-c3ccccc3)c(C(F)(F)F)s2)n[nH]1 — IC50 (ESR1; coactivator recruitment, antagonist): 7450 nM
O=S(=O)([C@@H]1C[C@@H]2O[C@H]1C(c1ccc(O)cc1)=C2c1ccc(O)cc1)N(CC(F)(F)F)c1ccc(Cl)cc1 — IC50 (ESR1; reporter gene, antagonist, luciferase): 30 nM
O=S(=O)(Oc1ccc(Br)cc1)C1CC2OC1C(c1ccc(O)cc1)=C2c1ccc(O)cc1 (racemic) — EC50 (ESR1; reporter gene, agonist, luciferase): 160 nM
COc1ccc(SCC(=O)c2ccc(O)cc2O)cc1 — EC50 (ESR1; coactivator recruitment, agonist): 1310 nM
Cc1ccccc1OS(=O)(=O)C1CC2OC1C(c1ccc(O)cc1)=C2c1ccc(O)cc1 (racemic) — EC50 (ESR1; reporter gene, agonist, luciferase): 220 nM
N#CC(=Cc1ccc(O)cc1)c1ccc(Cl)cc1Cl — EC50 (ESR1; coactivator recruitment, agonist): 64.7 nM
O=S(=O)(Oc1ccccc1Br)C1CC2OC1C(c1ccc(O)cc1)=C2c1ccc(O)cc1 (racemic) — EC50 (ESR1; reporter gene, agonist, luciferase): 44 nM
C[C@@H]1Cc2c([nH]c3ccccc23)[C@@H](c2c(F)cc(/C=C/C(=O)O)cc2F)N1C12CC(C1)C2 — IC50 (ESR1; cell-free assay): 0.4 nM

Repeated from above:
C[C@@H]1Cc2c([nH]c3ccccc23)[C@@H](c2c(F)cc(/C=C/C(=O)O)cc2F)N1C12CC(C1)C2 — IC50 (ESR1; cell-free assay): 0.4 nM
